Experimental data gathered from unrelated publications.
Lines come from different studies, so protocols differ.
Organism: Bacillus subtilis

C#CCNC(=O)[C@H]1NC(=O)[C@H]2NC(=O)[C@H](NC(=O)[C@@H]3NC(=O)[C@H](CC(N)=O)NC(=O)[C@H](NC(=O)[C@@H](CC(C)C)NC)[C@H](O)c4ccc(c(Cl)c4)Oc4cc3cc(c4O[C@@H]3O[C@H](CO)[C@@H](O)[C@H](O)[C@H]3O[C@H]3C[C@](C)(N)[C@H](O)[C@H](C)O3)Oc3ccc(cc3Cl)[C@H]2O)c2ccc(O)c(c2)-c2c(O)cc(O)cc21
MIC (broth microdilution; 168, cation-adjusted Mueller-Hinton broth; 20 to 24 h, 37 °C, 0.002% polysorbate 80): 0.125 µg/mL

COc1c(NC(=O)c2ccc(NC(=O)c3ccc(NC(=O)[C@H](CC#N)NC(=O)c4ccc(NC(=O)/C(C)=C/c5ccc(O)cc5)cc4)cc3)c(OC)c2O)ccc(C(=O)O)c1O
MIC (microbial growth, broth dilution; DSM10): 0.25 µg/mL

CC(C)C[C@@H]1NC(=O)[C@@H](CC(C)C)NC(=O)[C@H](CCN)NC(=O)[C@@H](NC(=O)[C@H](CCN)NC(=O)[C@@H](N)[C@@H](C)O)CCNC(=O)[C@H]([C@@H](C)O)NC(=O)[C@H](CCN)NC(=O)[C@H](CCN)NC1=O
MIC (broth microdilution; 168, cation-adjusted Mueller-Hinton broth): > 138 µM

CC[C@H]1OC(=O)[C@H](C)C(=O)[C@H](C)[C@@H](O[C@@H]2O[C@H](C)C[C@H](N(C)C)[C@H]2O)[C@](C)(OC)C[C@@H](C)C(=O)[C@H](C)[C@H]2N(CCCCn3cnc(-c4cccnc4)c3)C(=O)O[C@]12C
MIC (microbial growth; DSM402): 0.3 µg/mL

C/C(=C\c1ccc(O)cc1)C(=O)Nc1ccc(C(=O)N[C@@H](Cc2c[nH]nn2)C(=O)Nc2ccc(C(=O)Nc3ccc(C(=O)Nc4ccc(C(=O)O)cc4)c(O)c3)cc2)cc1
MIC (broth microdilution; DSM 10): 2 µg/mL

CC[C@H]1OC(=O)[C@H](C)[C@@H](OC(=O)Cc2ccc(OC(F)(F)F)cc2)[C@H](C)[C@@H](O[C@@H]2O[C@H](C)C[C@H](N(C)C)[C@H]2O)[C@](C)(OC)C[C@@H](C)C(=O)[C@H](C)[C@@H](O)[C@]1(C)O
MIC (microbial growth; DSM402): 4 µg/mL

CCCCCCCCCc1nc2cc(Cl)ccc2c(=O)n1CCN
MIC (168): 4.4 µg/mL

COc1c(NC(=O)c2ccc(NC(=O)c3ccc(NC(=O)[C@H](Cc4c[nH]nn4)NC(=O)c4ccc(NC(=O)/C(C)=C/c5ccc(O)cc5)cc4)cc3)c(OC)c2O)ccc(C(=O)O)c1O
MIC (microbial growth, broth dilution; DSM10): 0.125 µg/mL

CC[C@H]1OC(=O)[C@H](C)[C@@H](O[C@H]2C[C@@](C)(OC)[C@@H](O)[C@H](C)O2)[C@H](C)[C@@H](O[C@@H]2O[C@H](C)C[C@H](N(C)C)[C@H]2O)[C@](C)(OC)C[C@@H](C)C(=O)[C@H](C)[C@@H](O)[C@]1(C)O
MIC (microbial growth; DSM402): 0.5 µg/mL

CN[C@H](CC(C)C)C(=O)N[C@H]1C(=O)N[C@@H](CC(N)=O)C(=O)N[C@H]2C(=O)N[C@H]3C(=O)N[C@H](C(=O)N[C@H](C(=O)O)c4cc(O)cc(O)c4-c4cc3ccc4O)[C@H](O)c3ccc(c(Cl)c3)Oc3cc2cc(c3O[C@@H]2O[C@H](CO)[C@@H](O)[C@H](O)[C@H]2O[C@H]2C[C@](C)(NCc3ccc(OCc4cn(CC(=O)N[C@H](C(=O)N[C@@H](CCN)C(=O)N[C@H]5CCNC(=O)[C@H]([C@@H](C)O)NC(=O)[C@H](CCN)NC(=O)[C@H](CCN)NC(=O)[C@H](CC(C)C)NC(=O)[C@@H](CC(C)C)NC(=O)[C@H](CCN)NC5=O)[C@@H](C)O)nn4)c(OC)c3)[C@H](O)[C@H](C)O2)Oc2ccc(cc2Cl)[C@H]1O
MIC (broth microdilution; 168, cation-adjusted Mueller-Hinton broth; 20 to 24 h, 37 °C, 0.002% polysorbate 80): 0.25 µg/mL

Repeated from above:
CC[C@H]1OC(=O)[C@H](C)C(=O)[C@H](C)[C@@H](O[C@@H]2O[C@H](C)C[C@H](N(C)C)[C@H]2O)[C@](C)(OC)C[C@@H](C)C(=O)[C@H](C)[C@H]2N(CCCCn3cnc(-c4cccnc4)c3)C(=O)O[C@]12C
MIC (microbial growth; DSM402): 0.3 µg/mL
